Measured values pooled from the literature.
Lines come from different studies, so protocols differ.
CHES-1-like: CHES-1-like 700-785 (Drosophila melanogaster, UniProt Q9W3Q5)
GZF1: GZF1 250-711 (Homo sapiens, UniProt Q9H116)
Sequence of UniProt Q9H116 (whole entry, unmodified, looked up): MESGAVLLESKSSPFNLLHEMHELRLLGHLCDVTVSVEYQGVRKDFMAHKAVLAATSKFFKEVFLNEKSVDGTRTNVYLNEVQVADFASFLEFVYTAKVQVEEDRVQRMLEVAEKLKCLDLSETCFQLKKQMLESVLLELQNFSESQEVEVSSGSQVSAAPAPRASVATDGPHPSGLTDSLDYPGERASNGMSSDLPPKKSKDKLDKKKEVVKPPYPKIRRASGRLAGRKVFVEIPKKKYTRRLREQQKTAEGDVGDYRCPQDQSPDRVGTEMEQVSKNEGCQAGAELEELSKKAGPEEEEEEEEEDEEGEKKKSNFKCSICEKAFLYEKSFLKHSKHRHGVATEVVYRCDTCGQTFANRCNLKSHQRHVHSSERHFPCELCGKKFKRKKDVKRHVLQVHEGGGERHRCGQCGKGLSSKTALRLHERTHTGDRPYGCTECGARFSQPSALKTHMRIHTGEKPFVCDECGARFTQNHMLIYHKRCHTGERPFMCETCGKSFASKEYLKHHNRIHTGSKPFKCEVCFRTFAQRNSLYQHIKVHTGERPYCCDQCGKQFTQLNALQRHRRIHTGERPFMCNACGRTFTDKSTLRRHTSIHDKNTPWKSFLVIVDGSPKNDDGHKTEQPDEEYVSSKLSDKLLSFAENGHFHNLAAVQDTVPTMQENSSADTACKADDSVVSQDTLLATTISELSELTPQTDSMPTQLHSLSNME
HRS1: HRS1 1-344 (Arabidopsis thaliana, UniProt Q9FX67)
Sequence of UniProt Q9FX67 (whole entry, looked up): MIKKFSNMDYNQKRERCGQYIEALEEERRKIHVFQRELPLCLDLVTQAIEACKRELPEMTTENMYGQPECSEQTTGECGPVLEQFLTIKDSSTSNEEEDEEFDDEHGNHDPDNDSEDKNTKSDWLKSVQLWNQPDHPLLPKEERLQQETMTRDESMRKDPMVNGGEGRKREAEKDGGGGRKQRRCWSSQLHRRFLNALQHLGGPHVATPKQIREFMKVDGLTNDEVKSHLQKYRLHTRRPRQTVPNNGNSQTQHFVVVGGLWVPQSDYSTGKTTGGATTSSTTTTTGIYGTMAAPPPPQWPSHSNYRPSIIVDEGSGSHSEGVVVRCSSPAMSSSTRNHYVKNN
RC3H1: RC3H1 89-407 (Homo sapiens, UniProt Q5TC82)
Sequence of UniProt Q5TC82 (whole entry, looked up): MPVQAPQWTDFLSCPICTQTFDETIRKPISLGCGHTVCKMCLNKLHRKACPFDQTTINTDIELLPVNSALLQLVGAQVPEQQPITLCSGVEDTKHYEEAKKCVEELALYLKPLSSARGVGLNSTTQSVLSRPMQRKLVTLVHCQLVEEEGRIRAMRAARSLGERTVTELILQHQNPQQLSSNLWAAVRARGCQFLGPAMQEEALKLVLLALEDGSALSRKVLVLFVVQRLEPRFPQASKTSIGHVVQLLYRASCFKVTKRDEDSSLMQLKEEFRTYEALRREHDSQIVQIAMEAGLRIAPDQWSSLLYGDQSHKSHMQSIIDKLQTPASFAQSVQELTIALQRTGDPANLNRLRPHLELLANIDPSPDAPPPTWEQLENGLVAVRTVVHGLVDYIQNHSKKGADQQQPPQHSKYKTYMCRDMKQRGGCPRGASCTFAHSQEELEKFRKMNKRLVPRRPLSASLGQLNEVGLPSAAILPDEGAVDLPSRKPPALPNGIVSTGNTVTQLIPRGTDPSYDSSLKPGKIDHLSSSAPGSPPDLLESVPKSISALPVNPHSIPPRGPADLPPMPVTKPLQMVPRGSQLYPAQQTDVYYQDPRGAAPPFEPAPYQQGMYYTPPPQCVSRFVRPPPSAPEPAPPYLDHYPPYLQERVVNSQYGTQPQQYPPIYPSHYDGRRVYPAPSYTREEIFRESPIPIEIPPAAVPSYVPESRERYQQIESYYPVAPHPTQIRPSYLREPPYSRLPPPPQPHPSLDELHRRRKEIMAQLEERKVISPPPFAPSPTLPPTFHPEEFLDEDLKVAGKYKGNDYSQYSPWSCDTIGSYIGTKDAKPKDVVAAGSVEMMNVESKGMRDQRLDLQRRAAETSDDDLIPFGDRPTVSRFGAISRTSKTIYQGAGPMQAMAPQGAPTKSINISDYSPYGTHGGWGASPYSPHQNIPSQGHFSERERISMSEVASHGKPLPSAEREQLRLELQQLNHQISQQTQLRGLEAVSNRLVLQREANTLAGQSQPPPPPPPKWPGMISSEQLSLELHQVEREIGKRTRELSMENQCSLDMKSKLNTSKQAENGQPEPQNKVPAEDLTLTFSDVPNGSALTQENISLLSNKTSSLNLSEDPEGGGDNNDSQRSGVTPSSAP
hutP full length assumed V51I: hutP full length assumed V51I (Bacillus subtilis, UniProt P10943)
T1: loqs Loqs-PD, 1-359 (Drosophila melanogaster); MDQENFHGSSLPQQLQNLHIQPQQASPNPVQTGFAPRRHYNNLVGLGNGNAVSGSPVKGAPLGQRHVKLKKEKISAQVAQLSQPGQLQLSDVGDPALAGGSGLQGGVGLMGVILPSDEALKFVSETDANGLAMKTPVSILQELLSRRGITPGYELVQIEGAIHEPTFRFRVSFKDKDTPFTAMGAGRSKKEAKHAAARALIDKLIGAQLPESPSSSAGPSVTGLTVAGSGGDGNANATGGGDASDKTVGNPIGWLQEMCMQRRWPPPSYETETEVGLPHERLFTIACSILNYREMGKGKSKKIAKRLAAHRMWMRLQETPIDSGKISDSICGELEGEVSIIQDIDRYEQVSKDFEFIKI
Sequence of UniProt P14866 (whole entry, looked up): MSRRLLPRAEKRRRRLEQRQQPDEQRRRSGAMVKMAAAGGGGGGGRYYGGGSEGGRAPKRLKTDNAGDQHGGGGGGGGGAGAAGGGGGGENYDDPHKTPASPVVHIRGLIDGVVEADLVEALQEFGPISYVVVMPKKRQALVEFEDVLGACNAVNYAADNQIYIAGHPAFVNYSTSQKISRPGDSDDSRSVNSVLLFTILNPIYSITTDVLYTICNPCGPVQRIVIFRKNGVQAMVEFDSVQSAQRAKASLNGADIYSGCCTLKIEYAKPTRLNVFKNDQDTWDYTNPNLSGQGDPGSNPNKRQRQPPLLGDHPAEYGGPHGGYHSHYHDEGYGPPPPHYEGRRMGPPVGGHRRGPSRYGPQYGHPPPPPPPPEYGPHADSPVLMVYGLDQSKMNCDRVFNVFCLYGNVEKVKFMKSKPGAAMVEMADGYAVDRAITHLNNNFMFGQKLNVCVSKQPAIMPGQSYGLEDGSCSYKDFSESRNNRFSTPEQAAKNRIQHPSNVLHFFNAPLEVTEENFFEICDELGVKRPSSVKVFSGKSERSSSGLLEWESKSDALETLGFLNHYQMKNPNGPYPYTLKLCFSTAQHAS
Sequence of UniProt P84022 (whole entry, looked up): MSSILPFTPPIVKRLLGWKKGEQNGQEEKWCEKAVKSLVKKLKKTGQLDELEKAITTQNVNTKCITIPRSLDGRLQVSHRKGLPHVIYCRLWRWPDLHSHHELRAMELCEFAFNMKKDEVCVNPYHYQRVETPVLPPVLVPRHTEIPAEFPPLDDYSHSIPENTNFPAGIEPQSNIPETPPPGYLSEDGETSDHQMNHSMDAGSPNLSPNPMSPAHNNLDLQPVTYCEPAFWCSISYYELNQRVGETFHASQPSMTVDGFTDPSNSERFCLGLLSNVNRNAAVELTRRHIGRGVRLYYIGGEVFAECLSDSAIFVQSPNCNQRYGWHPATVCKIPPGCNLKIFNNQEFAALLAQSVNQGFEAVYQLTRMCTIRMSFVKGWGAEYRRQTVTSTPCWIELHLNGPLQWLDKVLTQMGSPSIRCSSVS
Sequence of UniProt P30014 (whole entry, looked up): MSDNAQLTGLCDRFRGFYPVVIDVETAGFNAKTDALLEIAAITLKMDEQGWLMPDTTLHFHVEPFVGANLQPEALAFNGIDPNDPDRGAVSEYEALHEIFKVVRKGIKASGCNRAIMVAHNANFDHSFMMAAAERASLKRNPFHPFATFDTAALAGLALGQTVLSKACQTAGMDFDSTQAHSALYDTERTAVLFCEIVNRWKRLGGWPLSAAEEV
Sequence of UniProt O94916 (whole entry, looked up): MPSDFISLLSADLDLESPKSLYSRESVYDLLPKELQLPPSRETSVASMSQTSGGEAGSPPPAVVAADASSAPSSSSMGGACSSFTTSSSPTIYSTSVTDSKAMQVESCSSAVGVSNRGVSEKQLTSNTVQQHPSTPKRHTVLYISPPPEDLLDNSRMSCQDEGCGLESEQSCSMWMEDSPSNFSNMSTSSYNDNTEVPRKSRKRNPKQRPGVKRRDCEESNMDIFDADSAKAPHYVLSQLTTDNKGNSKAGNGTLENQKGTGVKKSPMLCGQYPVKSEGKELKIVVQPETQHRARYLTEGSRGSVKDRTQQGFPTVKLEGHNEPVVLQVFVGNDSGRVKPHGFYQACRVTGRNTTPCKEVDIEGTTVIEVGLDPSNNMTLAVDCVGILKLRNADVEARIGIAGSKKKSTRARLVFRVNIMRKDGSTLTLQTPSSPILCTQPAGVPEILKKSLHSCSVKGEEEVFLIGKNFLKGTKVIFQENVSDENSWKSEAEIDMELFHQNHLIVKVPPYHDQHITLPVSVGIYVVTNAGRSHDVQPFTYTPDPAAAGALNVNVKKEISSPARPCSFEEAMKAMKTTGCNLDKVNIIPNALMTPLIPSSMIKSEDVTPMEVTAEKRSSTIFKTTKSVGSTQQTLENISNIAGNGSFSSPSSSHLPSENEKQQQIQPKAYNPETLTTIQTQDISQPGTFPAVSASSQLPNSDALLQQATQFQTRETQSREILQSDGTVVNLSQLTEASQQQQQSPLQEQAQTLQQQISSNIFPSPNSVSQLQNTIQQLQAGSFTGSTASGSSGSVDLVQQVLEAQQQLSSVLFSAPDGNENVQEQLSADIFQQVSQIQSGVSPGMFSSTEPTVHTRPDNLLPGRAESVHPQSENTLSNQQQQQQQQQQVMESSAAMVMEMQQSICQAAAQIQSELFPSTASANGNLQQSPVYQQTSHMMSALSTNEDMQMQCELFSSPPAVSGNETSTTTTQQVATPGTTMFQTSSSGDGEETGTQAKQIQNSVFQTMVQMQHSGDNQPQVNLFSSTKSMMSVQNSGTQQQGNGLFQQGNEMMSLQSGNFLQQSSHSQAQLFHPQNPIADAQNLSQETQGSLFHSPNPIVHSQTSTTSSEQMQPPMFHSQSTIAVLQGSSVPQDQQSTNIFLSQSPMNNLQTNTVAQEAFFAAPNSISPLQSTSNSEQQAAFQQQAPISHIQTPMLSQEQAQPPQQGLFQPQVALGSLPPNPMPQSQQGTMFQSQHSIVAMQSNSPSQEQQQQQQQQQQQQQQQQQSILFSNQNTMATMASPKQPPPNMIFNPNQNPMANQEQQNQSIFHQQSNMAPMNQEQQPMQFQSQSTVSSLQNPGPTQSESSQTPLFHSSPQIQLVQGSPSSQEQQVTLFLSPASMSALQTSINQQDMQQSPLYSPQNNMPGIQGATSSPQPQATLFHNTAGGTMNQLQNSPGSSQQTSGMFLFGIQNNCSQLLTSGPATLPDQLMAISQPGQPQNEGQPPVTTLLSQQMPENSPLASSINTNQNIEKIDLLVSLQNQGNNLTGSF

Strand	target	technique	form	setting	added	binding
TTAATGGTTTGCCGTTGTCGCCA (dsDNA)	CHES-1-like	competition	double-stranded DNA, one strand shown	not purified		no binding
TTAAGTTTGACCATATCTTG (dsDNA)	OsWRKY53 full length assumed (Oryza sativa, UniProt A7BEY7)	EMSA	double-stranded DNA, one strand shown			binds
GATCTCTGCGTGCATATCTATAGCCTACTG (dsDNA)	GZF1	competition	double-stranded DNA, one strand shown			no binding
CTAGTTGAAGGAAGAGAGGGAATGTGTGTTGG (dsDNA)	HRS1	EMSA	double-stranded DNA, one strand shown			binds
TTAATGTTGTTTCGTTTCCGCCA (dsDNA)	CHES-1-like	competition	double-stranded DNA, one strand shown	not purified		no binding
TATTTGGGGTGCGCCGCTATAGGCCCGGCT (dsDNA)	GZF1	competition	double-stranded DNA, one strand shown			binds
RNA 1 ACAUGUUUUCUGUGAAAACGGAG / RNA 2 ACAUGUUUUCUGUGAAAACGGAG (dsRNA; antiparallel duplex, unpaired middle)	RC3H1	crystal structure	double-stranded RNA			binds
GATCTCTGCGTGCGCGCTTATAGCCTACTG (dsDNA)	GZF1	competition	double-stranded DNA, one strand shown			no binding
GGGAACAGCCCAAUCAUCUUAGACGAUAGGGGGCUAUGCGUGAAAACAGAAGUUCACAGCAUAGCUCCUUUUUGUAUGGGCGCUUUACC (structured RNA)	hutP full length assumed V51I	filter binding	folded RNA		L-His, Mg2+	no binding
TTATAGTTACAGAGAGAGAAAAACAACTTTAT (dsDNA)	HRS1	EMSA	double-stranded DNA, one strand shown			binds
CTTCCTCCAGATGAGCTCATGGGTTTCTCCACCAAGGAAGTTTTCCGCTGGTTG (dsDNA)	NFAT5 264-544 (Homo sapiens, UniProt O94916)	EMSA	double-stranded DNA, one strand shown			binds
RNA 1 UAAUACUGUCAGGUAAAGAUGUC / RNA 2 CAUCUUACCGGGCAGCAUUAGA (dsRNA)	T1, loqs Loqs-PD, 1-359 (Drosophila melanogaster)	fluorescence anisotropy	double-stranded RNA			binds
UGAGUGUGUGUGUGUGAGUGUGU (ssRNA)	HNRNPL full length assumed (Homo sapiens, UniProt P14866)	EMSA	RNA			no binding
GGGAACAGCCCAAUCAUCUAUCACGAUAGGGGGCUAUGCGUGAAAACAGAAGUUCACAGCAUAGCUCCUUUUUGUAUGGGCGCUUUACC (structured RNA)	hutP full length assumed V51I	filter binding	folded RNA		L-His, Mg2+	no binding
TTCCGGGTTGCCTATTCAGATT (dsDNA)	CHES-1-like	competition	double-stranded DNA, one strand shown	not purified		no binding
TATTTGGAATGCGCCGCTGCGAACCCGGCT (dsDNA)	GZF1	competition	double-stranded DNA, one strand shown			no binding
GGCCCTCTTTAGGGCCTAA (ssDNA)	rnt 1-215 (Escherichia coli, UniProt P30014)	X-ray crystallography	single-stranded DNA		Mg2+	binds
GATCTCTGCGTGCGCGCTCATAGCCTACTG (dsDNA)	GZF1	competition	double-stranded DNA, one strand shown			no binding
ATCAGTCTAGACATACA (dsDNA)	SMAD3 1-145 (Homo sapiens, UniProt P84022)	EMSA	double-stranded DNA, one strand shown			binds
TATTTGGAATGCGTTGCTATAAACCCGGCT (dsDNA)	GZF1	competition	double-stranded DNA, one strand shown			no binding
ATAAACCCCAAAACCTAACCGAACCAGAAAGG (dsDNA)	HRS1	EMSA	double-stranded DNA, one strand shown			binds
TATTTGGAATGCGCCATCATAAACCCGGCT (dsDNA)	GZF1	competition	double-stranded DNA, one strand shown			no binding
CACGCUCAUGCACACACCCACA (ssRNA)	HNRNPL 193-270 (Homo sapiens, UniProt P14866)	EMSA	RNA			no binding
GATCTCTGCGTGCGTATCTATAGCCTACTG (dsDNA)	GZF1	competition	double-stranded DNA, one strand shown			no binding
CUCCCUUCUGUGAAGGGGA (structured RNA; hairpin, 6 bp stem, UGU loop)	RC3H1	crystal structure	folded RNA			binds

Repeated from above:
Strand	target	technique	form	setting	added	binding
CTTCCTCCAGATGAGCTCATGGGTTTCTCCACCAAGGAAGTTTTCCGCTGGTTG (dsDNA)	NFAT5 264-544 (Homo sapiens, UniProt O94916)	EMSA	double-stranded DNA, one strand shown			binds
RNA 1 UAAUACUGUCAGGUAAAGAUGUC / RNA 2 CAUCUUACCGGGCAGCAUUAGA (dsRNA)	T1, loqs Loqs-PD, 1-359 (Drosophila melanogaster)	fluorescence anisotropy	double-stranded RNA			binds
UGAGUGUGUGUGUGUGAGUGUGU (ssRNA)	HNRNPL full length assumed (Homo sapiens, UniProt P14866)	EMSA	RNA			no binding
